Results gathered from unrelated publications.
Compare with care: the assays were run in different laboratories.
Cell line: UACC-62

SMILES	effect on	method	tested at	time	baseline	measurement	value
C=CCc1ccc(O)c(-c2cc(CC=C)ccc2OCCCCCCCCCC[P+](c2ccccc2)(c2ccccc2)c2ccccc2)c1	autophagy	immunoblotting	0.5 µM	24 h	–	LC3-II/LC3-I ratio	3.2
CC(Cc1ccc(Cl)cc1)=C(c1ccc(Cl)cc1)c1ccc(OCCN(C)C)cc1	cell growth or viability	SRB	–	–	–	GI50	5190 nM
COc1ccc2c(c1)/C(=N\Nc1nnc3n1N=C(c1ccccc1)CS3)C(=O)N2	cell growth or viability	SRB	10 µM	–	–	inhibition	23%
CC(=O)OC[C@H]1O[C@@H](Sc2sc(C(=O)c3ccc(C)cc3)c(N)c2-c2nc3ccccc3s2)[C@H](OC(C)=O)[C@@H](OC(C)=O)[C@H]1OC(C)=O	–	SRB	10 µM	48 h	untreated	growth	57.3%
COc1ccc(C2=Nn3c(NN=C4C(=O)N(Cc5ccccc5)c5ccc(Cl)cc54)nnc3SC2)cc1	cell growth or viability	SRB	10 µM	–	–	inhibition	21%
CC(=C(c1ccc(O)cc1)c1ccc(Cl)cc1)c1ccc(Cl)cc1	cell growth or viability	SRB	–	–	–	GI50	500 nM
CC/C=C\C/C=C\C/C=C\C/C=C\C/C=C\C/C=C\CCC(=O)Nc1ccn(C2OC(CO)C(O)C2(F)F)c(=O)n1 (centres unmarked)	cell growth or viability	SRB	–	–	–	GI50	49.4 nM
CC(=O)OC[C@H]1O[C@@H](Sc2sc(C(=O)c3ccc(Br)cc3)c(N)c2-c2nc3ccccc3s2)[C@H](OC(C)=O)[C@@H](OC(C)=O)[C@@H]1OC(C)=O	–	SRB	10 µM	48 h	untreated	growth	89.3%

For quick reference, copied from above:
SMILES	effect on	method	tested at	time	baseline	measurement	value
COc1ccc(C2=Nn3c(NN=C4C(=O)N(Cc5ccccc5)c5ccc(Cl)cc54)nnc3SC2)cc1	cell growth or viability	SRB	10 µM	–	–	inhibition	21%
